Measurements collected from several papers.
Each numbered part is a random draw from the data of one study; scales do not carry over between parts. Changes are numbered by the printed parent chain.

Sample 1 — technique: universal PBM; form: double-stranded DNA, one strand shown; medium: in vitro; tested at: not given; reading: higher = stronger binding; endpoint: E-score
Target: Sal-like protein 4, full length isoform B (SALL4, Homo sapiens, UniProt Q9UJQ4-2, residues 1-616)
Notes: 8-mer, flanks averaged, mean of replicates
Target sequence (chain): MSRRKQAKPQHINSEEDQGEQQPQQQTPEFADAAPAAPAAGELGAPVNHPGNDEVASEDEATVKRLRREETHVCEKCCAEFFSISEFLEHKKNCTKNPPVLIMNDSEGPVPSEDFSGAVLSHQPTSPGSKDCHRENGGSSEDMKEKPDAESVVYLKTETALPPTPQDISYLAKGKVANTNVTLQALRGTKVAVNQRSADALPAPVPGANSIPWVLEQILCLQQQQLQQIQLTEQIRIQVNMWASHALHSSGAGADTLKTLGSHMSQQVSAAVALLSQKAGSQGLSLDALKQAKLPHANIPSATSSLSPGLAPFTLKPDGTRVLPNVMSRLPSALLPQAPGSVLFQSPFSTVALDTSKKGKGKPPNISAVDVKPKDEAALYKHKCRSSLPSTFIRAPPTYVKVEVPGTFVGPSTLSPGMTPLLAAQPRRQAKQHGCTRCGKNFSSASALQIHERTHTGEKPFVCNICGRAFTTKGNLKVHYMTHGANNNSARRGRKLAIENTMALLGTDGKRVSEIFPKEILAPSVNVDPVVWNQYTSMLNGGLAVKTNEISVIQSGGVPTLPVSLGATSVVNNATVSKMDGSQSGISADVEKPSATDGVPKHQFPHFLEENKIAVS
ACCTACTA: 0.151
CAGCCTAC: -0.192
CTAACTAA: 0.106
GCATGTAA: 0.219
ACAATGCC: -0.0607
ATACCCAG: -0.0343
CCTGTTTC: 0.00403
AACTGGGA: -0.12
CCTGTTGC: -0.0411
GGATCACC: -0.331
GTGAGGGA: -0.165
TTGCGAAA: 0.0706
AGTCGTGA: -0.0304
GTGCTCTA: -0.237
ATAAGCGA: 0.202
AAGAGCCG: -0.238
TATGCTAA: 0.197

Sample 2 — technique: protein-binding microarray; form: double-stranded DNA, one strand shown; medium: in vitro; tested at: 250 nM; notes: 60-bp whole probe; together with: salmon DNA 0.4 mg/ml; reference: random background probes; reading: higher = stronger binding; endpoint: log fluorescence; shared flanks, not repeated: GCCTAGCAC … GTCTTGATTCGCTTGACGCTGCTG
Target: Interferon regulatory factor 5, full length, phosphomimetic (IRF5, Homo sapiens, UniProt Q13568-2, residues 1-514, K96S/S451D/S453D/S456D/S462D)
AATGAGGCACTGAGAGCAGAGTGCTAG: -0.458 z-score
TCATGGATATATATCATACTGTGCTAG: 0.662 z-score
TTGGAACTGAGACTGGATTAGTGCTAG: -0.392 z-score
TTAGGTTCCGGGTTCGGTTAGTGCTAG: 0.609 z-score
GCATTTTTCTAACCCATTGAGTGCTAG: 0.555 z-score
TCAGTTTTCTCTCCCATACTGTGCTAG: 1.11 z-score
CCCGTTCACCCACGACCCTTGTGCTAG: -0.0874 z-score
GACGAACTGAGTTTCGAGTCGTGCTAG: 5.46 z-score
TCAACTTTCTTTAACTCACTGTGCTAG: 2.16 z-score
TTAGGTATCCTTATCTTTTAGTGCTAG: 0.541 z-score
TTAGGTCTCCTACTGCTTGAGTGCTAG: -0.385 z-score
TTATGTCTCCTTCTCCTTTAGTGCTAG: 0.501 z-score
TTAGATTTCGGTCTCGGTTAGTGCTAG: 7.98 z-score
GACGGTCTCCTACTGCTTACGTGCTAG: -0.175 z-score
GACGATTTCGGGAATGGAGACGTGCTA: 2.3 z-score
CTCACCATCATCCTCACTGCGTGCTAG: 0.334 z-score
TTAGGTTTCGGTTTCAGTTAGTGCTAG: 11.2 z-score
GACGATTTCAGATTCGAGACGTGCTAG: 0.754 z-score
TTAGGTATCCTTATCCTATAGTGCTAG: 0.174 z-score
GACGATTTCTGGACTGGAGACGTGCTA: 0.245 z-score
TCAAACATCTACAATGGCACTGTGCTA: 0.356 z-score
TCACCCCTCAGATCTGCCACTGTGCTA: -0.0378 z-score
TCATTTTTTTTTTTTTCACTGTGCTAG: 1.69 z-score
GACGATATCGCGTATCGAGACGTGCTA: 1.06 z-score
GACGGTTTCCTTTTCCTGAAGTGCTAG: 1.28 z-score

Sample 3 — technique: aptamer microarray, sandwich; form: DNA with 2'F-ANA; medium: in vitro; tested at: 200 nM; together with: Cy3 exosite-II aptamer, 400 nM; reading: higher = stronger binding; endpoint: mean fluorescence intensity; oligonucleotide: GGTTGGTGTGGTTGG
Target: Prothrombin, mature alpha-thrombin (F2, Homo sapiens, UniProt P00734)
Notes: whole 15-mer aptamer, many near background
2'F-ANA at 2 3 4 7 8 9 11 12 14 15: 317 a.u.
2'F-ANA at 2 7 8 9 10 11 12 13: 175 a.u.
2'F-ANA at 3 5 6 7 8 9 11 12 13 14 15: 56.9 a.u.
2'F-ANA at 2 4 6 8 10 13 15: 65 a.u.
2'F-ANA at 1 2 5 8 9 12 14: 48.2 a.u.
2'F-ANA at 3 4 5 6 8 10 11: 51.5 a.u.
2'F-ANA at 1 4 8 9 10 11 12 14: 47.1 a.u.
2'F-ANA at 4 6 7 11 15: 201 a.u.
2'F-ANA at 3 4 5 6 7 8 11 12 14 15: 56.3 a.u.
2'F-ANA at 2 3 5 7 9 10 13 14 15: 52 a.u.
2'F-ANA at 1 2 5 6 11 13 15: 51.3 a.u.
2'F-ANA at 1 5 6 9 10 11 12 13 14: 47.3 a.u.
2'F-ANA at 5 7 10 13: 45.7 a.u.
2'F-ANA at 4 5 6 7 8 10 11 12 13 14 15: 48.5 a.u.
2'F-ANA at 2 3 9 10 11 12 14: 291 a.u.
2'F-ANA at 1 4 5 6 8 10 11 12 13: 48.4 a.u.

Sample 4 — technique: RNA Bind-n-Seq; form: RNA; medium: in vitro; tested at: 200 nM; notes: whole 134-nt RNA, ends assumed; together with: 150 mM LiCl; reference: input library; reading: higher = stronger binding; endpoint: log2 enrichment; all molecules: 7-deaza-guanosine replaces G
Target: Ras GTPase-activating protein-binding protein 1, full length (G3BP1, Homo sapiens, UniProt Q13283)
Chain of UniProt Q13283 (whole entry, looked up): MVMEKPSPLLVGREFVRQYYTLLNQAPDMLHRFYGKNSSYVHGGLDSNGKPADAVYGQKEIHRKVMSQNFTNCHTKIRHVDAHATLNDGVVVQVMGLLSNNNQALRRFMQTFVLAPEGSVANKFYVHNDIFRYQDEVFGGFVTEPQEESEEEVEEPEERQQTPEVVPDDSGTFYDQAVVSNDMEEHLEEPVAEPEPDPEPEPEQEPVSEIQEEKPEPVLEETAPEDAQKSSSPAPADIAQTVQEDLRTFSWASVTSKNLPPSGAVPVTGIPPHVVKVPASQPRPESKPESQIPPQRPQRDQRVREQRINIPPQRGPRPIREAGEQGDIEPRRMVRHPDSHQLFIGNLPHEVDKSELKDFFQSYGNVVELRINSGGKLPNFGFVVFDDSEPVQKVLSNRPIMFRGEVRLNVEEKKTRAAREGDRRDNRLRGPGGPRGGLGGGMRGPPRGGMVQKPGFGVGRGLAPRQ
Shared flanks, not repeated: GGGAGUUCUACAGUCCGACGAUC … UGGAAUUCUCGGGUGUCAAGG
AAGUCCUGUGCUACACAUCGUAUGUACCGAAUCGGGUGGGAAAAAGGGAAAAAGGGAAAGUAUUAUGUUACGCCGUUCGGAUCUGCACUU: 0.237
CUCAAGUCCUGUGCUACACAUCGUAUGUACCGAAUCGGCCCGGCCCGGCCCGGGAAAGUAUUAUGUUACGCCGUUCGGAUCUGCACUUCC: 0.504
UCUCCACCUGCUGAGCUCCCCAGUUUGAGGCGGAGCACACGCCAAAAGACCACGGGCUCCUGUGCUAGUACCAGGUAAUUUGUUUUUUUU: 0.871
UAACUUUAGAGGAGGAUCUGAUGGAUAUGGCAGUGGACGUGGAUUUGGGGAUGGCUAUAAUGGGUAUGGAGGAGGACCUGGAGGCGGCAA: 0.0574
UCUGUUUCCUCUGCCAGUGGCAAUGCAACACCUAACACUCCUGGGGAUGAGUCUCCCUGUGGUAUUAUUAUUCCUCAUGAAAACUCACCA: 0.249
UGGGAGGUGGAUUUUGUUUAUUUUUUUAGCUCAUUUCCAGGGGUGGGAAUUUUUUUUUAAUAUGUGUCAUGAAUAAAGUUGUUUUUCAAA: 0.0988

Sample 5 — technique: DHFR PCA, deep sequencing; medium: yeast; together with: (+)-ABA 0.39 µM; reference: wild-type fitted maximum; reading: higher = stronger binding; endpoint: relative binding score
Target: ABI1, truncated, D143A, DHFR fusion (Arabidopsis thaliana)
Notes: methotrexate growth selection, single substitutions
Starting sequence: PYL1, truncated, DHFR fusion (Arabidopsis thaliana); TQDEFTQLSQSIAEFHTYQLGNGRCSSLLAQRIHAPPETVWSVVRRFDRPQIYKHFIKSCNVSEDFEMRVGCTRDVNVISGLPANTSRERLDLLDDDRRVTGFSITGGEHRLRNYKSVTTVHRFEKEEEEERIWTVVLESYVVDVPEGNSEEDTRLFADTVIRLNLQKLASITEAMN; partner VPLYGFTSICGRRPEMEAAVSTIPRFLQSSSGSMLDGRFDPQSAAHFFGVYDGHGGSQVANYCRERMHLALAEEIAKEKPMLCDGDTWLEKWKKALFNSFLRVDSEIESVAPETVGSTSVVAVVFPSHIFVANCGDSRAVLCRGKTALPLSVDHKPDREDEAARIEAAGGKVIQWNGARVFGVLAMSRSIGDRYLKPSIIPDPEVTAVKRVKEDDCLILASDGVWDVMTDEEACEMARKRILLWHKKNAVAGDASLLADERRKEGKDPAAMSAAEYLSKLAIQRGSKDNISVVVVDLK
D153I: -24%
K58A: 22.8%
L94E: -2.15%
H16D: -7.12%
V78E: 8.81%
T73A: 2.54%
S42H: 6.04%
V142M: 2.19%
G102H: -13.2%
A13L: 34.4%
L82V: 15%
V137A: 0.494%
H122T: -11.6%
N165H: 17.2%
T160E: 0.721%
Q31H: 16.3%
R132L: 37.4%
M176R: 25.6%
L91P: -13.7%
M176A: 27.8%
E131G: 68.9%

Sample 6 — target: CCNF, cyclin fold, Cln2 fusion (human); technique: yeast growth competition, sequencing; medium: yeast; notes: strong parent motif; reference: not given; reading: higher = stronger binding; endpoint: normalised enrichment score
Starting sequence: CDC6 docking peptide (human); TLKGRRLVFDNQL
TLHGRRLVFDNQL [K3H]: 7.8
TLKGRRLVIDNQL [F9I]: 2.73
TLKGVRLVFDNQL [R5V]: 2.42
TLKGRRLVDDNQL [F9D]: 0.221
TLKGRRLVFCNQL [D10C]: 8.49
TLKGRRLVFDNKL [Q12K]: 8.38
TLKGRRHVFDNQL [L7H]: 0.701
TLWGRRLVFDNQL [K3W]: 7.72
TLKGRRWVFDNQL [L7W]: 1.83
TLKGRRLVFDNVL [Q12V]: 9.19
TLMGRRLVFDNQL [K3M]: 8.09
